Results of several laboratories.
Parts stem from different laboratories: compare values within a part only.
Sequence of UniProt P28223 (whole entry, looked up): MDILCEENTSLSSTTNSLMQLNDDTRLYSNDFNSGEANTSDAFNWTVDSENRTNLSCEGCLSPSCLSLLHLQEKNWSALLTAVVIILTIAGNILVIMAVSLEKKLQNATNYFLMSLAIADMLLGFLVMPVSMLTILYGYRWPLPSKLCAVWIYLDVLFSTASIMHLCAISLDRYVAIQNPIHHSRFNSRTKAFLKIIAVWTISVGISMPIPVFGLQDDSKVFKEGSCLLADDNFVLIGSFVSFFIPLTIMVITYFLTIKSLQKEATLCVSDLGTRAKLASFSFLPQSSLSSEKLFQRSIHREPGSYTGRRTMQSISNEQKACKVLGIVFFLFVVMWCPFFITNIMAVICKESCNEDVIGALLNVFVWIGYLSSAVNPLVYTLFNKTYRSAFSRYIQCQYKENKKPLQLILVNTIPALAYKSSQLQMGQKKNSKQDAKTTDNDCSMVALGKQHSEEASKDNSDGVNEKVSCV
Sequence of UniProt P49674 (whole entry, looked up): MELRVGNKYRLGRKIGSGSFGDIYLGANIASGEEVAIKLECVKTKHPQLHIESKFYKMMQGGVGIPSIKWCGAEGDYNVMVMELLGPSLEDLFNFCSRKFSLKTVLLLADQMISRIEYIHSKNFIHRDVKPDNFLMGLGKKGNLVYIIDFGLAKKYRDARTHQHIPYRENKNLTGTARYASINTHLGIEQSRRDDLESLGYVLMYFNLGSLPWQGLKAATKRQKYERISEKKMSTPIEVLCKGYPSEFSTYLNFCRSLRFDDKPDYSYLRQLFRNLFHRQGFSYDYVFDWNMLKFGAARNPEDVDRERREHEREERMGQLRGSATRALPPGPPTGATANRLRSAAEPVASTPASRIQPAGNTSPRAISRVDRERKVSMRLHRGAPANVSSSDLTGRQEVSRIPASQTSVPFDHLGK
Sequence of UniProt P49760 (whole entry, looked up): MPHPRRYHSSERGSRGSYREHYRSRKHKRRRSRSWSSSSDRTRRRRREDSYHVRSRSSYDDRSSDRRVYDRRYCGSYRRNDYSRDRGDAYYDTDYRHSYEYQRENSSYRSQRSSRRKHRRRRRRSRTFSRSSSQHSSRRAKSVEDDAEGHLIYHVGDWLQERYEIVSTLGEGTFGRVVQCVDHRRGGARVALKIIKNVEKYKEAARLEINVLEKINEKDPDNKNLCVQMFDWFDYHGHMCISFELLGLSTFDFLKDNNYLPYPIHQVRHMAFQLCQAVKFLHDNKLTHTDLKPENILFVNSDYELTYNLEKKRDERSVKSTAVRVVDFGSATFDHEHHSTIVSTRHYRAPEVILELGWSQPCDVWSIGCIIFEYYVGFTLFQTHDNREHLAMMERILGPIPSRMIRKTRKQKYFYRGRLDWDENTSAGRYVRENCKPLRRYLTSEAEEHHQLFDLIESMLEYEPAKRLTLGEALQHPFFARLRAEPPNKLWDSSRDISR
Sequence of UniProt Q14012 (whole entry, looked up): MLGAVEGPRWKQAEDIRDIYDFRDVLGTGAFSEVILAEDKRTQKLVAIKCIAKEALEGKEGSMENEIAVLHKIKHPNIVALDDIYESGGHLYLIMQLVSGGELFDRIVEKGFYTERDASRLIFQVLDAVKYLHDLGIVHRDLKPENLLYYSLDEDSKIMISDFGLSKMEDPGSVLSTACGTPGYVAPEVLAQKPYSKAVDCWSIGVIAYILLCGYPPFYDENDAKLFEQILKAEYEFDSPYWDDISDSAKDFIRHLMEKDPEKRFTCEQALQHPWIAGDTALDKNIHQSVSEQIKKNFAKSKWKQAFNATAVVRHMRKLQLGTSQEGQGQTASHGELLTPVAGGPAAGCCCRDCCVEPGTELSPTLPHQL
Sequence of UniProt P9WI81 (whole entry, looked up): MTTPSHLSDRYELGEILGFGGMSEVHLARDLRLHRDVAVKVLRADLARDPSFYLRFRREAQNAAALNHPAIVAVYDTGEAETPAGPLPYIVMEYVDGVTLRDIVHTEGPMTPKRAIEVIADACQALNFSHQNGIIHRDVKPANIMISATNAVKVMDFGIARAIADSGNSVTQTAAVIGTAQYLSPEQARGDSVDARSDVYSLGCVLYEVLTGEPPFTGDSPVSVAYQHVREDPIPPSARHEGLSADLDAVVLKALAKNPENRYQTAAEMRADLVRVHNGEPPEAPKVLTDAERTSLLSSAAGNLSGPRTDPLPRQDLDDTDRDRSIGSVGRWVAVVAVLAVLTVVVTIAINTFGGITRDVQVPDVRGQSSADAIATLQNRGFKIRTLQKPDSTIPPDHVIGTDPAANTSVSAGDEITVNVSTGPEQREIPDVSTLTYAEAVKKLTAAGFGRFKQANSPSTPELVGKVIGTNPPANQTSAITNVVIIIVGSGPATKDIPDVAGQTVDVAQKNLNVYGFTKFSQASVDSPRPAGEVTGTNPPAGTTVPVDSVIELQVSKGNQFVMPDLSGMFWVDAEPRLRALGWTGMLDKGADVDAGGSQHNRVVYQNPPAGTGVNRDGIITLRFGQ

Set 1
Target: DNA polymerase theta, ATPase domain (POLQ, Homo sapiens, UniProt O75417)
Sequence of UniProt O75417 (whole entry, unmodified, looked up): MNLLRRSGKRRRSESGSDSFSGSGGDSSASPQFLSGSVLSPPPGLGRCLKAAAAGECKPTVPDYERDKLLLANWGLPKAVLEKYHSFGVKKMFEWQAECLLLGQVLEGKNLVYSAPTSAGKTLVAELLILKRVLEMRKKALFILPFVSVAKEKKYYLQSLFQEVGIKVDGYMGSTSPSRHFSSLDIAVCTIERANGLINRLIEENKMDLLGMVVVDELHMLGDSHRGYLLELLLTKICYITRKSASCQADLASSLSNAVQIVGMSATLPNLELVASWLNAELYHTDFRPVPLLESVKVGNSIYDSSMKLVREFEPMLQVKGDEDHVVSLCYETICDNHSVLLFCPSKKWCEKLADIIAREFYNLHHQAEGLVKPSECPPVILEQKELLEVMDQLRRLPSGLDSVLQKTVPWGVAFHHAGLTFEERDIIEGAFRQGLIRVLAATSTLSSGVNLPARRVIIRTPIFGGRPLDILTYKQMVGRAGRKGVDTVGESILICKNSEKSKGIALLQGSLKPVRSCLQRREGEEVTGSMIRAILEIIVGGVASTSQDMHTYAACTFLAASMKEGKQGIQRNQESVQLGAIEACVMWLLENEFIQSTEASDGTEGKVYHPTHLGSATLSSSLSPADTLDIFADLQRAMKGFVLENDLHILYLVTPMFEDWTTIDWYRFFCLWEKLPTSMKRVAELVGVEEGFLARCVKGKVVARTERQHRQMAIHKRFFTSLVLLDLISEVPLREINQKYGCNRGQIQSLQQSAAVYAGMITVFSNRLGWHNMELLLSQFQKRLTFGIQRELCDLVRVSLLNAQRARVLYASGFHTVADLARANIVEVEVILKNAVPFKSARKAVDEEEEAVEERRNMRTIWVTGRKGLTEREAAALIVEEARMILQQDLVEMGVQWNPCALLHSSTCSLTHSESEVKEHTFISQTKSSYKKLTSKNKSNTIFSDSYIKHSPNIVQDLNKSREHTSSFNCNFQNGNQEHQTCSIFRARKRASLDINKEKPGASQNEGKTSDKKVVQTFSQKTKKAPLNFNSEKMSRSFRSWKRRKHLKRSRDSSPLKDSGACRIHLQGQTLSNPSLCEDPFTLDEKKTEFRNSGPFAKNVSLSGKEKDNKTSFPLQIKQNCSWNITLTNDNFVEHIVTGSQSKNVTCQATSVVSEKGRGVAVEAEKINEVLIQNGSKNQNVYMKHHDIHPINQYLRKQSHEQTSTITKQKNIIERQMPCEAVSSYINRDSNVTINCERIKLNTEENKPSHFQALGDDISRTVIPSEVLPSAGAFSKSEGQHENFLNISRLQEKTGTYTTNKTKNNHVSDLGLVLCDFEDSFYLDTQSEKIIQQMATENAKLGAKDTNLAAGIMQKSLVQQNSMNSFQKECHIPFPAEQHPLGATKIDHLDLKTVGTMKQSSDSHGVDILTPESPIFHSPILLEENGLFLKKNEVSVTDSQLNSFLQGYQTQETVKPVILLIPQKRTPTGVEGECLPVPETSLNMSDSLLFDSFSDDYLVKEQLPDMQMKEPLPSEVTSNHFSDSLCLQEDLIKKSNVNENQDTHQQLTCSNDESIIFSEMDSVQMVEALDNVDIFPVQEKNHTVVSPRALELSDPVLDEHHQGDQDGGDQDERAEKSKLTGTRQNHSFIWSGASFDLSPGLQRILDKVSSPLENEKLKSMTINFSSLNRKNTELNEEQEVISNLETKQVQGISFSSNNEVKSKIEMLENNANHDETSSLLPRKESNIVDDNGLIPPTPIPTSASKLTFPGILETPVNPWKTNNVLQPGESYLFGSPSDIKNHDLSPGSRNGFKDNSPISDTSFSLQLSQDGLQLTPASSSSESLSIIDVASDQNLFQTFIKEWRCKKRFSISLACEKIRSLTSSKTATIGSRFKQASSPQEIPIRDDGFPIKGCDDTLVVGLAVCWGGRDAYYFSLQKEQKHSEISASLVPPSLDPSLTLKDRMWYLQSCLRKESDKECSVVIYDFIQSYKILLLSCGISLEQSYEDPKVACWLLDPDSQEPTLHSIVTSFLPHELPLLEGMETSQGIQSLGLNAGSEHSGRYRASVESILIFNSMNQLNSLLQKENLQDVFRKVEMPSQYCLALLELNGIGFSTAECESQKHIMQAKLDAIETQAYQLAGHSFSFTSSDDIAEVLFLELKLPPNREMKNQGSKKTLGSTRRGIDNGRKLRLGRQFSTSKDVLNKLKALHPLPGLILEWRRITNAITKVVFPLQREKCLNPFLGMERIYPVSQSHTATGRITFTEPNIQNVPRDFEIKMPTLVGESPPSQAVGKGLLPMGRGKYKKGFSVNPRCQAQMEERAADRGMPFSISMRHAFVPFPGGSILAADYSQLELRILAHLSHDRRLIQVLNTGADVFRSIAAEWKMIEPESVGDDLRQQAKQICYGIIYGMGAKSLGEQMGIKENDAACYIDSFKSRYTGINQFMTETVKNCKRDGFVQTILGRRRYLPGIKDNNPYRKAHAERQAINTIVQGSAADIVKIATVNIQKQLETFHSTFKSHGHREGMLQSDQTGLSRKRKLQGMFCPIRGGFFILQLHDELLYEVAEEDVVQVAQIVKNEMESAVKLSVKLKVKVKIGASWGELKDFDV
Read-out: enzyme activity
Mode: inhibitor
Tested at: 77 µM
Relative to: untreated
For CN1CCc2cccc(Cl)c2CC1, the remaining activity was 110%.
The remaining activity of CCCCc1ccc(C(=O)O)nc1 is reported as 99.8%.
For C[C@@H]1O[C@@H](O[C@@H]2C=C3CC[C@@H]4[C@H](CC[C@]5(C)[C@@H](c6ccc(=O)oc6)CC[C@]45O)[C@@]3(C)CC2)[C@H](O)[C@H](O)[C@H]1O, the remaining activity was 104%.

Set 2
Organism: Plasmodium berghei
Mode: inhibitor
Cell line: Huh-7
Strain: GFP-expressing, liver stage
Tested at: 10 µM
Time: 24 h
Relative to: untreated control
The infection rate of COc1ccc(C(CN(C)C)C2(O)CCCCC2)cc1 (stereo not drawn) is reported as 101%.
c1ccc2nc(N3CCNCC3)ccc2c1 has an infection rate of 69.8%.
With OC1CCCCC1N1CCC(c2ccccc2)CC1 (stereo not drawn) the infection rate was 90.9%.
Oc1cc(Cl)ccc1Oc1ccc(Cl)cc1Cl gave an infection rate of 22.1%.
The infection rate of COP(=S)(OC)Oc1ccc(Sc2ccc(OP(=S)(OC)OC)cc2)cc1 is reported as 93.8%.

Set 3
Organism: Sarcocystis neurona
Read-out: parasite growth
Tested at: 10 µM
Time: 96 h
Setting: first screen
Relative to: untreated
For C[C@]12C/C(=C/O)C(=O)C[C@@H]1CC[C@@H]1[C@@H]2CC[C@@]2(C)[C@H]1CC[C@]2(C)O, “log2 fold change” read -0.16.
Under “log2 fold change”, CN1C(=O)CN=C(c2ccccc2)c2cc([N+](=O)[O-])ccc21 is recorded as -0.03.
CNCC(O)c1ccc(O)cc1 (stereo not drawn): “log2 fold change” 0.19.
For Cc1nnc2n1-c1ccc(Cl)cc1C(c1ccccc1)=NC2, “log2 fold change” read -0.0645.
For NC(=O)C[S+]([O-])C(c1ccccc1)c1ccccc1 (stereo not drawn), “log2 fold change” read 0.2.
Under “log2 fold change”, COc1ccc(C(CN(C)C)C2(O)CCCCC2)cc1 (stereo not drawn) is recorded as -0.18.
CNC1CC(c2ccc(Cl)c(Cl)c2)c2ccccc21 (stereo not drawn) — result for “log2 fold change”: -0.54.

Set 4
Compound: COc1ccc2c(c1)/C(=C/c1cnc[nH]1)C(=O)N2
Read-out: enzyme activity
Mode: inhibitor
Tested at: 0.5 µM
Relative to: control
TEC (Homo sapiens, UniProt P42680) — remaining activity: 91.6%.
For MUSK (Homo sapiens, UniProt O15146): remaining activity read 78.3%.
The remaining activity was 80.6% (CLK2 (Homo sapiens, UniProt P49760)).
For MAP3K20 (Homo sapiens, UniProt Q9NYL2): remaining activity read 91.4%.
JAK1 (Homo sapiens, UniProt P23458) — remaining activity: 83.8%.
It gave 97.8% for remaining activity (PAK1 (Homo sapiens, UniProt Q13153)).
The remaining activity was 99.2% (TYRO3 (Homo sapiens, UniProt Q06418)).
The remaining activity was 94.4% (IGF1R (Homo sapiens, UniProt P08069)).
It gave 98% for remaining activity (SRPK1 (Homo sapiens, UniProt Q96SB4)).
PAK6 (Homo sapiens, UniProt Q9NQU5) — remaining activity: 101%.
For SGK2 (Homo sapiens, UniProt Q9HBY8): remaining activity read 71.4%.
For EPHA6 (Homo sapiens, UniProt Q9UF33): remaining activity read 91.3%.
CSNK1D (Homo sapiens, UniProt P48730) — remaining activity: 93.6%.
It gave 98.4% for remaining activity (EPHA2 (Homo sapiens, UniProt P29317)).
The remaining activity was 80% (CSNK1E (Homo sapiens, UniProt P49674)).
The remaining activity was 91.3% (CAMKK1 (Homo sapiens, UniProt Q8N5S9)).
It gave 100% for remaining activity (SIK2 (Homo sapiens, UniProt Q9H0K1)).
The remaining activity was 107% (PRKCZ (Homo sapiens, UniProt Q05513)).
CAMK1 (Homo sapiens, UniProt Q14012) — remaining activity: 103%.
It gave 73.9% for remaining activity (FLT1 (Homo sapiens, UniProt P17948)).
For PRKCQ (Homo sapiens, UniProt Q04759): remaining activity read 109%.
It gave 87.3% for remaining activity (CLK1 (Homo sapiens, UniProt P49759)).

Set 5
Cell line: mouse MPNST tumor cells
Method: high-content nuclear imaging
Refers to: cell number
Tested at: 10 µM
Time: 12 h
Setting: mean of 2 replicates
Relative to: plate mean
Direction: higher = more cells
The nuclei count of COc1ccc(CN2CCNCC2)c(OC)c1OC is reported as 0.82 z-score.
O=C(Oc1ccc([N+](=O)[O-])cc1)N1CCN(Cc2cccc(Oc3ccccc3)c2)CC1 has a nuclei count of 1.1 z-score.
The nuclei count of O=C(NCCN1CCC2(CC1)C(=O)NCN2c1cccc(F)c1)c1ccc2ccccc2c1 is reported as -6.02 z-score.
The nuclei count of O=C(Oc1ccc([N+](=O)[O-])cc1)N1CCC(C(O)(c2ccc3c(c2)OCO3)c2ccc3c(c2)OCO3)CC1 is reported as 1.26 z-score.
The nuclei count of C[C@@H]1CN([C@H]2CC[C@](C#N)(c3ccc(F)cc3)CC2)CC[C@]1(C(=O)O)c1ccccc1 is reported as 0.193 z-score.

Mixed results
The inhibition of O=C(NC[C@@H]1[C@H]2CN(C(=O)OCc3cc(C(F)(F)F)cc(C(F)(F)F)c3)C[C@@H]12)c1ccc2[nH]nnc2c1 is reported as 51.4% (HTR2A (Homo sapiens, UniProt P28223); cell-free assay; 10 µM).
CCOc1cc(=O)n2c(c1C(=O)N1CCC3(CC1)OCCO3)CCCCC2 has a remaining compound of 69.7% (mouse, microsomes or S9; 2 µM, 0.5 h).
For O=C(Nc1cnc(Oc2ccc(F)cc2)nc1)N1CCc2ncccc2[C@@H]1c1ccc(F)cc1, the remaining binding was 90% (pknB (Mycobacterium tuberculosis, UniProt P9WI81); cell-free assay, competition with immobilised ligand; 1 µM).
For CCC1C(c2ccccc2)NC(c2ccccc2)CC1(O)c1ccc(F)cc1 (stereo not drawn), the remaining compound was 74.5% (mouse, microsomes or S9; 2 µM, 0.5 h).
For CNC(=O)c1cc(C(=O)NC2CC2)cn(Cc2ccccc2)c1=O, the inhibition was -9.14% (HRH2 (Homo sapiens, UniProt P25021); binding, radioligand binding; 10 µM).
CNC(=O)c1ccc(Nc2ncc(C(F)(F)F)c(NCc3nccnc3N(C)S(C)(=O)=O)n2)cc1 has an inhibition of 16.9% (HTR2C (Homo sapiens, UniProt P28335); binding, radioligand binding; 10 µM).

Excerpt of the above (set 2):
The infection rate of COc1ccc(C(CN(C)C)C2(O)CCCCC2)cc1 (stereo not drawn) is reported as 101%.
c1ccc2nc(N3CCNCC3)ccc2c1 has an infection rate of 69.8%.
With OC1CCCCC1N1CCC(c2ccccc2)CC1 (stereo not drawn) the infection rate was 90.9%.
Oc1cc(Cl)ccc1Oc1ccc(Cl)cc1Cl gave an infection rate of 22.1%.
The infection rate of COP(=S)(OC)Oc1ccc(Sc2ccc(OP(=S)(OC)OC)cc2)cc1 is reported as 93.8%.
